Measurements pooled from the literature.
Every numbered part comes from another study and shows a few of its results, in no order. Substitutions count along the parent as printed.
Chain of UniProt O14965 (whole entry, looked up): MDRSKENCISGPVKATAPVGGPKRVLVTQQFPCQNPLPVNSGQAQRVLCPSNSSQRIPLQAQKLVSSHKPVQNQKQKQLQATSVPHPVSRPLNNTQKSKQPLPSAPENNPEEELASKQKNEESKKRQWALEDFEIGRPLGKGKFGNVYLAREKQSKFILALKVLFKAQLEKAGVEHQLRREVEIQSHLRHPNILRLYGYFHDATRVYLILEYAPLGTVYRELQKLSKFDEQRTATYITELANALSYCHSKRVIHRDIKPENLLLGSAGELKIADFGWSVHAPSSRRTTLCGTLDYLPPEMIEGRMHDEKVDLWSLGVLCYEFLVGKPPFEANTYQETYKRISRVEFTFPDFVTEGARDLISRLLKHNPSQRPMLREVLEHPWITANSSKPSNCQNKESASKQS

Sample 1 — technique: RNA Bind-n-Seq; form: RNA; matrix: in vitro; concentration: 20 nM; notes: 6-mer, flanks averaged, single round; together with: 150 mM KCl; baseline: input library; reading: higher = stronger binding
Target: TAR DNA-binding protein 43, full length, His tag (TARDBP, Homo sapiens, UniProt Q13148, residues 1-414)
Sequence	6-mer enrichment (R)
AGUAAU	0.634
UGGUAA	0.819
AAUCCC	0.597
AGCAGG	1.7
CAGACA	0.692
UAGACC	0.64
AUUGAU	0.604
UCUUAU	0.574

Sample 2 — target: CCNB1, cyclin fold, Cln2 fusion (human); technique: yeast growth competition, sequencing; matrix: yeast; notes: weak parent motif; baseline: not given; reading: higher = stronger binding
Starting sequence: SGO1 docking peptide (human); PLAKRALKYTDEK
Variant	normalised enrichment score
K8A	0.279
D11A	0.14
Y9A	0.102
L7A	0.322
K13A	0.0171
K4A	0.272

Other studies, line by line
Compound	target or system	assay	setting	scale	endpoint	result
CN(C)CCCn1cc(C2=C(c3c[nH]c4ccccc34)C(=O)NC2=O)c2ccccc21	Aurora kinase A (AURKA, Homo sapiens, UniProt O14965)	enzyme activity, inhibitor	0.5 µM	baseline: control	remaining activity	108%
NS(=O)(=O)c1cc(NC(=O)Cc2ccccc2)ccc1Oc1cccc(Cl)c1	normal-adjacent organoid sample F	CellTiter-Glo	1 µM, replicate mean	baseline: DMSO	viability	104%

Repeated from above (sample 2):
Variant	normalised enrichment score
D11A	0.14
Y9A	0.102
